# Assay results gathered from unrelated publications.
# Lines come from different studies, so protocols differ.
SMILES,organism,assay,test system,conditions,endpoint,result
Clc1ccc(COc2cccc(CNCc3ccccc3)c2)cc1,nontuberculous mycobacteria,,,range over strains,MIC,7.8 to 31.3 µM
CC(C)CC1NC(=O)C(C(=O)NC(C(=O)NC2C(=O)N3C2SC(C)(C)C3C(=O)O)c2ccccc2)=C1O (centres unmarked),Escherichia coli,broth microdilution,Keio mutant JW5195-1,18 h,MIC,50 mg/L
N=C(N)c1ccc(OCc2cc(Br)cc(COc3ccc(C(=N)N)cc3)c2)cc1,Escherichia coli,,mcr-1,"20 h, compound alone",MIC,100 mg/L
CC(C)C[C@@H](NC(=O)[C@H](C)NC(=O)CNC(=O)[C@@H](NC=O)C(C)C)C(=O)N[C@@H](C)C(=O)N[C@@H](C(=O)N[C@H](C(=O)N[C@@H](C(=O)N[C@@H](Cc1c[nH]c2ccccc12)C(=O)N[C@H](CC(C)C)C(=O)N[C@@H](Cc1cccc2cc[nH]c12)C(=O)N[C@H](CC(C)C)C(=O)N[C@@H](Cc1c[nH]c2ccccc12)C(=O)N[C@H](CC(C)C)C(=O)N[C@@H](Cc1c[nH]c2ccccc12)C(=O)NCCO)C(C)C)C(C)C)C(C)C,Streptococcus pyogenes,broth microdilution,SSI-9,,MIC,0.27 µM
CC(C)(C)Oc1ccc(CC2NC(=O)C(C(=O)NC(C(=O)NC3C(=O)N4C3SC(C)(C)C4C(=O)O)c3ccccc3)=C2O)cc1 (centres unmarked),Escherichia coli,broth microdilution,"ATCC 35218, low-level TEM-1",no clavulanic acid,MIC,> 200 mg/L
CC[C@H](C)[C@H](NC(=O)[C@H](CCCNC(=N)N)NC(=O)[C@H](Cc1c[nH]c2ccccc12)NC(=O)[C@H](CCCNC(=N)N)NC(=O)[C@H](Cc1c[nH]c2ccccc12)NC(=O)[C@H](Cc1c[nH]c2ccccc12)NC(=O)[C@H](Cc1c[nH]c2ccccc12)NC(=O)[C@H](CCCNC(=N)N)NC(=O)[C@H](Cc1c[nH]c2ccccc12)NC(=O)[C@H](CCCNC(=N)N)NC(=O)CN)C(N)=O,Candida albicans,broth microdilution,"CGMCC 2.209, RPMI 1640-MOPS","48 h, 30 °C, together with: ZnCl2 8 µM",MIC,4 µM
N=C(N)NCCC[C@H](NC(=O)CCCCCNC(=O)[C@H](CCCNC(=N)N)NC(=O)[C@H](CCCNC(=N)N)NC(=O)CCCCCNC(=O)[C@H](CCCNC(=N)N)NC(=O)[C@H](CCCNC(=N)N)NC(=O)CCCCCNC(=O)[C@H](CCCNC(=N)N)NC(=O)[C@H](CCCNC(=N)N)NC(=O)CCCCCNC(=O)[C@@H](N)CCCNC(=N)N)C(=O)NCCCCCC(=O)NCCC(=O)O,Escherichia coli,broth microdilution,"ATCC 25922, Mueller-Hinton broth",,MIC,96 µM
CO[C@@H](C(=O)N1Cc2n[nH]c(NC(=O)c3ccc(N4CCN(C)CC4)cc3)c2C1)c1ccccc1,human coronavirus OC43,virus-induced cell killing,MRC-5,maximum over 10 doses,maximum inhibition,0%
O=c1ccc2nc3ccc(OCc4ccc([N+](=O)[O-])o4)cc3oc-2c1,Stenotrophomonas maltophilia,,,24 h,MIC,> 32 mg/L
Oc1c(Cl)cc(Cl)cc1-c1[nH]c(Cl)c(Cl)c1Cl,Listeria ivanovii,,BAA-139,,MIC,0.17 µM
C[C@H](NC(=O)[C@H](CCCNC(=N)N)NC(=O)[C@H](Cc1c[nH]c2ccccc12)NC(=O)[C@H](CCCNC(=N)N)NC(=O)[C@H](Cc1c[nH]c2ccccc12)NC(=O)[C@H](Cc1c[nH]c2ccccc12)NC(=O)[C@H](Cc1c[nH]c2ccccc12)NC(=O)[C@H](CCCNC(=N)N)NC(=O)[C@H](Cc1c[nH]c2ccccc12)NC(=O)[C@H](CCCNC(=N)N)NC(=O)CN)C(N)=O,Candida albicans,broth microdilution,"alveolar fluid isolate, RPMI 1640-MOPS","48 h, 30 °C",MIC,16 µM
CC1(C)S[C@@H]2[C@H](NC(=O)[C@H](N)c3ccccc3)C(=O)N2[C@H]1C(=O)O,Escherichia coli,broth microdilution,Keio mutant JW0587-1,"18 h, enterobactin-related gene",MIC,6.25 mg/L
CC(C)C[C@H](NC(=O)[C@H](CCCNC(=N)N)NC(=O)[C@H](Cc1c[nH]c2ccccc12)NC(=O)[C@H](CCCNC(=N)N)NC(=O)[C@H](Cc1c[nH]c2ccccc12)NC(=O)[C@H](Cc1c[nH]c2ccccc12)NC(=O)[C@H](Cc1c[nH]c2ccccc12)NC(=O)[C@H](CCCNC(=N)N)NC(=O)[C@H](Cc1c[nH]c2ccccc12)NC(=O)[C@H](CCCNC(=N)N)NC(=O)CN)C(N)=O,Candida albicans,broth microdilution,"CGMCC 2.209, RPMI 1640-MOPS","48 h, 30 °C, together with: FeCl3 4 µM",MIC,32 µM
CC[C@H](C)[C@H](NC(=O)[C@H](CC(C)C)NC(=O)[C@H](CCCCN)NC(=O)[C@@H](NC(=O)[C@H](C)NC(=O)[C@H](CCC(=O)O)NC(=O)[C@H](Cc1c[nH]cn1)NC(=O)[C@@H](NC(=O)[C@H](CCCCN)NC(=O)[C@H](CCC(N)=O)NC(=O)[C@H](Cc1ccccc1)NC(=O)[C@@H](NC(=O)[C@H](CCCCN)NC(=O)[C@@H](N)CCCCN)C(C)C)[C@@H](C)CC)[C@@H](C)CC)C(N)=O,Gram-positive and Gram-negative bacteria,,,geometric mean,MIC,45.1 µM
N=C(N)NCCC[C@H](NC(=O)[C@H](Cc1c[nH]c2ccccc12)NC(=O)[C@H](CCCNC(=N)N)NC(=O)[C@H](Cc1c[nH]c2ccccc12)NC(=O)[C@H](Cc1c[nH]c2ccccc12)NC(=O)[C@H](Cc1c[nH]c2ccccc12)NC(=O)[C@H](CCCNC(=N)N)NC(=O)[C@H](Cc1c[nH]c2ccccc12)NC(=O)[C@@H](N)CCCNC(=N)N)C(=O)N[C@@H](Cc1ccccc1)C(N)=O,Candida albicans,broth microdilution,"CGMCC 2.209, RPMI 1640-MOPS","48 h, 30 °C, together with: NH4Cl 6 µM",MIC,8 µM
CN1CCCN(C(=O)c2cccc(-c3ccc(/C=C4/C(=O)Nc5ccc(Cl)cc54)o3)c2)CC1.Cl,human coronavirus OC43,virus-induced cell killing,MRC-5,maximum over 10 doses,maximum inhibition,0%
N=C(N)NCCC[C@H](NC(=O)[C@H](Cc1c[nH]c2ccccc12)NC(=O)[C@H](CCCNC(=N)N)NC(=O)[C@H](Cc1c[nH]c2ccccc12)NC(=O)[C@H](Cc1c[nH]c2ccccc12)NC(=O)[C@H](Cc1c[nH]c2ccccc12)NC(=O)[C@H](CCCNC(=N)N)NC(=O)[C@H](Cc1c[nH]c2ccccc12)NC(=O)[C@H](CCCNC(=N)N)NC(=O)CN)C(N)=O,Candida albicans,broth microdilution,"CGMCC 2.209, RPMI 1640-MOPS","48 h, 30 °C, together with: ZnCl2 8 µM",MIC,4 µM
CC1(C)SC2C(NC(=O)C(NC(=O)C3=C(O)CN(c4ccccc4)C3=O)c3ccccc3)C(=O)N2C1C(=O)O (centres unmarked),Escherichia coli,broth microdilution,Keio mutant JW5195-1,18 h,MIC,25 mg/L
C#CCOc1ccc2oc(-c3ccc(OC)cc3)c(C(=O)OCC)c2c1CN1CCCCC1,Mycobacterium smegmatis,,mc2 155,,MIC,13 µM
CC1(C)SC2C(NC(=O)C(NC(=O)C3=C(O)C(Cc4ccsc4)NC3=O)c3ccccc3)C(=O)N2C1C(=O)O (centres unmarked),Escherichia coli,broth microdilution,"isolate IU, CTX-M-14, TEM-1",together with: clavulanic acid 6 µg/mL,MIC,200 mg/L
CC(C)[C@H](NC(=O)[C@H](CCCNC(=N)N)NC(=O)[C@H](Cc1c[nH]c2ccccc12)NC(=O)[C@H](CCCNC(=N)N)NC(=O)[C@H](Cc1c[nH]c2ccccc12)NC(=O)[C@H](Cc1c[nH]c2ccccc12)NC(=O)[C@H](Cc1c[nH]c2ccccc12)NC(=O)[C@H](CCCNC(=N)N)NC(=O)[C@H](Cc1c[nH]c2ccccc12)NC(=O)[C@@H](N)CCCNC(=N)N)C(N)=O,Candida albicans,broth microdilution,"SP3876, RPMI 1640-MOPS","48 h, 30 °C",MIC,8 µM
CC1(C)SC2C(NC(=O)C(NC(=O)C3=C(O)C(c4ccccc4)NC3=O)c3ccccc3)C(=O)N2C1C(=O)O (centres unmarked),Escherichia coli,broth microdilution,"isolate IU 356 A, KPC-3, VIM-1, TEM",together with: clavulanic acid 6 µg/mL,MIC,> 200 mg/L
C[C@@H](O)[C@H](NC(=O)[C@H](Cc1c[nH]c2ccccc12)NC(=O)[C@H](Cc1c[nH]c2ccccc12)NC(=O)[C@H](Cc1c[nH]c2ccccc12)NC(=O)[C@@H](NC(=O)[C@H](Cc1c[nH]c2ccccc12)NC(=O)[C@H](CCCNC(=N)N)NC(=O)[C@@H](N)CCCNC(=N)N)[C@@H](C)O)C(=O)N[C@@H](Cc1c[nH]c2ccccc12)C(=O)N[C@@H](CCCNC(=N)N)C(=O)N[C@@H](CCCNC(=N)N)C(N)=O,Lacticaseibacillus rhamnosus,,"1.038, probiotic strain","24 h, 37 °C, tested up to 128 µM",MIC,128 µM

# Some of these lines once more:
SMILES,organism,assay,test system,conditions,endpoint,result
CC(C)C[C@@H](NC(=O)[C@H](C)NC(=O)CNC(=O)[C@@H](NC=O)C(C)C)C(=O)N[C@@H](C)C(=O)N[C@@H](C(=O)N[C@H](C(=O)N[C@@H](C(=O)N[C@@H](Cc1c[nH]c2ccccc12)C(=O)N[C@H](CC(C)C)C(=O)N[C@@H](Cc1cccc2cc[nH]c12)C(=O)N[C@H](CC(C)C)C(=O)N[C@@H](Cc1c[nH]c2ccccc12)C(=O)N[C@H](CC(C)C)C(=O)N[C@@H](Cc1c[nH]c2ccccc12)C(=O)NCCO)C(C)C)C(C)C)C(C)C,Streptococcus pyogenes,broth microdilution,SSI-9,,MIC,0.27 µM
CC(C)(C)Oc1ccc(CC2NC(=O)C(C(=O)NC(C(=O)NC3C(=O)N4C3SC(C)(C)C4C(=O)O)c3ccccc3)=C2O)cc1 (centres unmarked),Escherichia coli,broth microdilution,"ATCC 35218, low-level TEM-1",no clavulanic acid,MIC,> 200 mg/L
